Assay results pooled from the literature.
Numbered parts are unrelated; each lists some results of a single study. Several values in a cell are separate wells, animals, samples, runs or records.

Block 1
Structure (SMILES): Cn1cc(-c2cccc(CN3CCC4(CC3)COc3c4ccc4c3CN([C@H]3CCC(=O)NC3=O)C4=O)c2)cn1
host | matrix | route | dose | notes | Cmax
cynomolgus monkey |  | intravenous | 1 mg/kg |  | 287 ng/mL and 251 ng/mL and 276 ng/mL
rat | plasma | intravenous | 1.02 mg/kg |  | 439 ng/mL
rat |  | intravenous | 1 mg/kg | approximate dose | 441 ng/mL and 501 ng/mL and 374 ng/mL
cynomolgus monkey |  | oral | 3 mg/kg |  | 96.8 ng/mL and 150 ng/mL and 86.9 ng/mL
mouse, Crbn I391V | spleen | oral | 30 mg/kg |  | ~3.66 µM
rat | plasma | oral | 2.98 mg/kg | group mean | 417 ng/mL
rat |  | oral | 3 mg/kg | approximate dose | 366 ng/mL and 371 ng/mL and 513 ng/mL
cynomolgus monkey | plasma | oral | 3.02 mg/kg |  | 111 ng/mL
cynomolgus monkey | plasma | intravenous | 1 mg/kg |  | 271 ng/mL

Block 2 — organism: Staphylococcus aureus; strain: USA300; tested at: 2 x MIC
SMILES: CCCCC[C@@H]1CC(=O)N[C@@H](C(C)C)C(=O)N[C@H](CCCNC(=N)N)C(=O)N[C@@H](CO)C(=O)NCC(=O)N(C)[C@H](Cc2ccccc2)C(=O)N[C@@H](CC(C)C)C(=O)N[C@H](CCCNC(=N)N)C(=O)N[C@@H](CC(N)=O)C(=O)N[C@H](C(C)C)C(=O)N[C@H](Cc2c[nH]c3ccccc23)C(=O)NCCCC(=O)O1
time | viable cells
240 min | 500 CFU/mL and 800 CFU/mL and 400 CFU/mL
300 min | 800 CFU/mL and 600 CFU/mL
0 min | 4.4e+08 CFU/mL and 4.9e+08 CFU/mL and 3.8e+08 CFU/mL
120 min | 1500 CFU/mL and 1000 CFU/mL and 800 CFU/mL
30 min | 1500 CFU/mL and 2000 CFU/mL and 1800 CFU/mL

Block 3 — read-out: enzyme activity; action: inhibitor; method: Ub-TR-FRET; matrix: HECT domain; reading: higher = more chain formation
Structure (SMILES): CCOC(=O)/C=C/CN(CCCCN1c2ccccc2CCc2ccc(Cl)cc21)Cc1ccccc1.O=C(O)/C=C\C(=O)O
Target: E3 ubiquitin-protein ligase NEDD4, HECT domain (Homo sapiens, UniProt P46934)
Sequence of UniProt P46934 (whole entry, looked up): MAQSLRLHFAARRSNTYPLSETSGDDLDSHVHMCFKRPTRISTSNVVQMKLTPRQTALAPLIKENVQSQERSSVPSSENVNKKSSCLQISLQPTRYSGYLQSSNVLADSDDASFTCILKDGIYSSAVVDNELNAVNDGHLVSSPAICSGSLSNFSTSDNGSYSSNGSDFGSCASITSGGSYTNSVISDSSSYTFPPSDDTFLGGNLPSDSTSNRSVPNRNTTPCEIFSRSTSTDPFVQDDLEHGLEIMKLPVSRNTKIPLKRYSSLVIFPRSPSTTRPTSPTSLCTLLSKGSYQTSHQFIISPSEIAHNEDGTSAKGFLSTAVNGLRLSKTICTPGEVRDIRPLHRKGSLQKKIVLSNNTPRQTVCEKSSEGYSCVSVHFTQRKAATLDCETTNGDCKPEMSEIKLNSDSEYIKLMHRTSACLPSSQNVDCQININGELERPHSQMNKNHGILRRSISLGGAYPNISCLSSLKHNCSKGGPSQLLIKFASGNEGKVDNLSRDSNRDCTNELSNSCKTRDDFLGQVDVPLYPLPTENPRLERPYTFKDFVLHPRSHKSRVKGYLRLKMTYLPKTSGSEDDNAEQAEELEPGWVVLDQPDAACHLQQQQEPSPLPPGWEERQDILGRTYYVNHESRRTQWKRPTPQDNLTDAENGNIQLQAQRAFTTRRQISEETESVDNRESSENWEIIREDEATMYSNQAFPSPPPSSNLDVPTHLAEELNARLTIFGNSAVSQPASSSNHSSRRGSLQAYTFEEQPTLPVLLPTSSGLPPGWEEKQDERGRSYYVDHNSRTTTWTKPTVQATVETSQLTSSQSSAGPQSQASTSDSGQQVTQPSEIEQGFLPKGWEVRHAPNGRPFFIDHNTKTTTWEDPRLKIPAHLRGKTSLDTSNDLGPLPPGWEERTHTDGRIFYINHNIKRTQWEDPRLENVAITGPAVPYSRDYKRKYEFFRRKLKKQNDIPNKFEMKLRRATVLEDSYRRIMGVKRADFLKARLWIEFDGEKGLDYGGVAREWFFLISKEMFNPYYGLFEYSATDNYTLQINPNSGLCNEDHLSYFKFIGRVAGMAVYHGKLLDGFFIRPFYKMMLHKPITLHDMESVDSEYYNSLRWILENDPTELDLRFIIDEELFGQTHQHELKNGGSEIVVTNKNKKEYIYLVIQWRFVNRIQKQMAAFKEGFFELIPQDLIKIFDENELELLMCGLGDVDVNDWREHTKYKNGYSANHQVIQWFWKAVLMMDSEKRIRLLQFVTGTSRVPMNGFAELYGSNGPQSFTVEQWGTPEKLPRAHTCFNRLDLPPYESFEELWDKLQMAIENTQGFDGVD
tested at | ubiquitin chain formation AUC
0.005081 µM | 94600 a.u. and 101000 a.u. and 95900 a.u. and 102000 a.u. and 103000 a.u. and 94000 a.u.
33.33 µM | 111000 a.u. and 117000 a.u. and 121000 a.u.
0.4115 µM | 97400 a.u. and 105000 a.u. and 94600 a.u. and 104000 a.u. and 96500 a.u.
1.235 µM | 104000 a.u. and 99500 a.u. and 97000 a.u. and 99400 a.u. and 108000 a.u.
0.1372 µM | 102000 a.u. and 103000 a.u. and 96200 a.u. and 96500 a.u. and 104000 a.u. and 94800 a.u.

Block 4 — cell line: P493B lymphoma cells
Structure (SMILES): CC(C)OC(=O)[C@H](CCC(=O)C=[N+]=[N-])NC(=O)[C@H](Cc1c[nH]c2ccccc12)NC(=O)C12CCN(CC1)CC2
tested at | viability
30 µM | 83.1%
3 µM | 116%
10 µM | 96%
1 µM | 100%

Repeated from above (block 2):
time | viable cells
0 min | 4.4e+08 CFU/mL and 4.9e+08 CFU/mL and 3.8e+08 CFU/mL
240 min | 500 CFU/mL and 800 CFU/mL and 400 CFU/mL
300 min | 800 CFU/mL and 600 CFU/mL
